Measured values pooled from the literature.
Lines come from different studies, so protocols differ. ± marks the error that the study gave.
Cell line: Jurkat

CC(=O)C=C(C)[O][Pd][c]1ccccc1C(=O)N=P12CN3CN(CN(C3)C1)C2 — IC50 (cytotoxicity, MTT; 24 h, 1% DMSO): 10.5 ± 1.8 µM
Cc1ccc(C(C)C)cc1.O=C(N=P(c1ccccc1)(c1ccccc1)c1ccccc1)c1ccccn1.[Cl-].[Cl-].[Ru+2] — IC50 (cell viability, MTT; 24 h): 0.78 ± 0.08 µM
C1=CCCC=CCC1.F[P-](F)(F)(F)(F)F.[Pt+][c]1ccccc1P(=Nc1ccccc1)(c1ccccc1)c1ccccc1 — IC50 (cell death): 0.6 µM
CC(C)C[C@@H]1NC(=O)[C@H](CC(C)C)NC(=O)[C@H](Cc2ccccc2)NC(=O)[C@@H]2CSSC[C@@H](C(=O)O)NC(=O)[C@H](CSSC[C@H](N)C(=O)N3CCC[C@H]3C(=O)N2)NC(=O)CNC1=O — IC50 (cell adhesion; 45 min, added: ICAM-1-Fc): ~80 µM
O=C1c2cccc[c]2[Au-]([Cl])([Cl])[N+]1=P(c1ccccc1)(c1ccccc1)c1ccccc1 — IC50 (cell viability, MTT; 24 h): 3.4 ± 0.5 µM
C(=C/c1ccccc1)/c1ccccc1 — IC50 (cell growth or viability, ATP luminescence; 24 h): 38 µM
O=C(N=P12CN3CN(CN(C3)C1)C2)c1cccc[c]1[Pd].O=C(N=P12CN3CN(CN(C3)C1)C2)c1cccc[c]1[Pd]([Br])[Br] — IC50 (cytotoxicity, MTT; 24 h, 1% DMSO): 8.1 ± 1.1 µM
Cc1ccc(C2C([N+](=O)[O-])C(Cc3ccc(O)cc3)NC23C(=O)c2cccc4cccc3c24)cc1 (stereo not drawn) — IC50 (cell growth or viability, MTT; 24 h): 71.2 µM
CCC(/C=C/C(=O)O)=C\C(=O)C[C@H](C)C[C@@H](C)CC[C@H](O)[C@H](C)C(=O)CC(O)[C@H](C)[C@@H](C)OC(=O)C[C@@H](O)C1=C(C)C(=O)OC1=O (stereo partly drawn) — IC50 (cell growth or viability, MTS): 10 µM
COc1ccc(C2C([N+](=O)[O-])C(Cc3ccc(O)cc3)NC23C(=O)c2cccc4cccc3c24)cc1 (stereo not drawn) — IC50 (cell growth or viability, MTT; 48 h): 60.1 µM
Cc1ccc(C(C)C)cc1.[Cl-].[Cl-].[Fe+2].[Ru+2].c1cc[cH-]c1.c1ccc(P(=NCc2ccccn2)(c2ccccc2)[c-]2cccc2)cc1 — IC50 (cell viability, MTT; 24 h): 9.3 ± 0.07 µM
O=C1c2cccc3cccc(c23)C12NC(Cc1ccc(O)cc1)C([N+](=O)[O-])C2c1ccccc1 (stereo not drawn) — IC50 (cell growth or viability, MTT; 48 h): 29.4 µM
CC[C@@H]1NC(=O)[C@H]([C@H](O)[C@H](C)Cc2nc3ccc(C(=O)OC)cc3[nH]2)N(C)C(=O)[C@H](C(C)C)N(C)C(=O)[C@H](CC(C)C)N(C)C(=O)[C@H](CC(C)C)N(C)C(=O)[C@@H](C)NC(=O)[C@H](C)NC(=O)[C@H](CC(C)C)N(C)C(=O)[C@H](C(C)C)NC(=O)[C@H](CC(C)C)N(C)C(=O)CN(C)C1=O — IC50 (reporter gene, inhibitor, NFAT luciferase reporter): 10 µM
Cc1ccc(C(C)C)cc1.[Cl-].[Cl-].[Ru+2].c1ccc(P(=Nc2cccc3cccnc23)(c2ccccc2)c2ccccc2)cc1 — IC50 (cell viability, MTT; 24 h): 0.9 ± 0.32 µM
O=C1c2cccc3cccc(c23)C12NC(Cc1ccc(O)cc1)C([N+](=O)[O-])C2c1cccc([N+](=O)[O-])c1 (stereo not drawn) — IC50 (cell growth or viability, MTT; 48 h): 31.9 µM
